Assay results of several laboratories.
± marks the error that the study gave.
Cnr2: Cannabinoid receptor 2 (Cnr2, Mus musculus, UniProt P47936)
Urease: Urease (Canavalia ensiformis, UniProt P07374)
Oprk1: Kappa-type opioid receptor (Oprk1, Mus musculus, UniProt P33534)
NPY2R: Neuropeptide Y receptor type 2 (NPY2R, Homo sapiens, UniProt P49146)
MC4R: Melanocortin receptor 4 (MC4R, Homo sapiens, UniProt P32245)
PRSS1: Serine protease 1 (PRSS1, Bos taurus, UniProt P00760)

For `Cc1cc2c(cc1Cl)Cc1c(C(=O)NC3C4(C)CCC(C4)C3(C)C)nn(-c3ccc(Cl)cc3Cl)c1-2` (stereo not drawn), the Ki was 0.023 µM (Cnr2; ligand displacement, radioligand).
For `CC(=O)NCP(=O)(O)O`, the Ki was over 1000 µM (Urease; inhibitor; pH 7).
`CC(C)C[C@H](NC(=O)[C@H](CCC(N)=O)NC(=O)[C@H](CCCCN)NC(=O)[C@H](CCCNC(=N)N)NC(=O)[C@@H]1CCCN1C(=O)[C@H](C)NC(=O)[C@@H](N)CCCCN)C(=O)N[C@@H](C)C(=O)N[C@H](C(=O)N[C@@H](CCCCN)C(=O)N[C@@H](C)C(=O)N[C@@H](C)C(=O)N[C@@H](CCCNC(=N)N)C(=O)N[C@@H](CCCCN)C(=O)N[C@@H](CO)C(=O)N[C@@H](C)C(=O)N1CCC[C@H]1C(=O)N[C@@H](C)C(=O)O)[C@@H](C)O` has a Ki of 4.5 µM (Procathepsin L (CTSL, Homo sapiens, UniProt P07711); enzyme activity, inhibitor, fluorescence; pH 6).
The Ki of `CC(C)[C@@H](CN1CC[C@@](C)(c2cccc(C(N)=O)c2)[C@@H](C)C1)NC(=O)[C@H]1Cc2ccc(O)cc2CN1` is reported as over 10 µM (KCNH2 (Homo sapiens, UniProt Q12809); 60 min, pH 7.4).
With `CCCCCc1cc(O)c2c(c1)OC(C)(C)C1CCC(C(=O)OC3OC(C(=O)O)C(O)C(O)C3O)=CC21` (stereo not drawn) the Ki was 2 ± 1.2 µM (Cytochrome P450 2B6 (CYP2B6, Homo sapiens, UniProt P20813); inhibitor; HEK293 overexpressing CYP2B6, recombinant microsomes; pH 7.4, total concentration, with: bupropion 12.5 to 100 µM).
For `C[C@H]1[C@H]2CCC[C@]1(c1cccc(O)c1)CCN2CCc1ccccc1`, the Ki was 0.0121 µM (Oprk1; ligand displacement, radioligand; cell membranes).
For `CC1=C[C@H](O/C=C2/C(=O)O[C@@H]3c4ccccc4C[C@H]23)OC1=O` (single isomer, unassigned), the Ki was 0.07 µM (RMS3 (Lathyrus oleraceus, UniProt A0A109QYD3); cell-free assay, inhibitor).
For `CC(C)C[C@H](NC(=O)[C@@H]1CCCN1C(=O)[C@@H](N)CCCCN)C(=O)N[C@@H](CCC(=O)O)C(=O)N[C@H](CN[C@@H](Cc1ccc(O)cc1)C(=O)N[C@@H](CCCNC(=N)N)C(=O)N[C@H](C(=O)O)C(C)C)Cc1ccccc1`, the Ki was 38 ± 6 µM (Plasmepsin I (PMI, Plasmodium falciparum, UniProt Q7KQM4)).
For `CC(=O)N[C@@H](CCCNC(=N)N)C(=O)N[C@@H](Cc1ccc(O)cc1)C(=O)N[C@H]1CCCNC(=N)NC(=O)NCCCCNC(=O)[C@H](Cc2ccc(O)cc2)NC(=O)[C@H](CCCNC(=N)N)NC(=O)[C@H](CC(C)C)NC1=O`, the Ki was over 5 µM (NPY2R; ligand displacement, radioligand).
The Ki of `CC[C@H](C)[C@H](NC(=O)[C@H](CCC(=O)O)NC(=O)[C@H](Cc1ccc(Cl)cc1)NC(=O)[C@@H](C)NC(=O)[C@@H](N)Cc1ccc(O)cc1)C(=O)N[C@H](C(=O)NCC(N)=O)[C@@H](C)CC` is reported as over 1 µM (Oprk1; ligand displacement, radioligand; cell membranes).
For `CC[C@H](C)[C@H](NC(=O)CN)C(=O)N[C@H](C(=O)N[C@@H](CC(N)=O)C(=O)N[C@H](C(=O)N[C@@H](CC(C)C)C(=O)N[C@@H](CCC(N)=O)C(=O)N[C@@H](CCCCN)C(=O)N[C@@H](Cc1ccc(O)cc1)C(=O)N[C@@H](Cc1ccc(O)cc1)C(=O)N[C@H]1CSSC[C@@H]2NC(=O)[C@H](CCCCN)NC(=O)[C@H](C)NC(=O)CNC(=O)[C@H](CCCNC(=N)N)NC(=O)[C@H]([C@@H](C)O)NC(=O)[C@H](CO)NC(=O)[C@@H]3CSSC[C@H](NC(=O)[C@H](CCCNC(=N)N)NC(=O)CNC(=O)CNC(=O)[C@H](CCCNC(=N)N)NC(=O)[C@H](C(C)C)NC(=O)[C@H](CCCNC(=N)N)NC1=O)C(=O)N[C@@H](C)C(=O)N[C@@H](C(C)C)C(=O)N[C@@H](CC(C)C)C(=O)N[C@@H](CO)C(=O)N[C@@H](CSSC[C@@H](C(=O)N[C@@H](CCCNC(=N)N)C(=O)N[C@@H](CCCNC(=N)N)C(=O)N[C@@H](CCCCN)C(=O)N[C@@H](CCCCN)C(N)=O)NC2=O)C(=O)N[C@@H](CC(C)C)C(=O)N1CCC[C@H]1C(=O)N[C@@H](CCCCN)C(=O)N[C@@H](CCC(=O)O)C(=O)N[C@@H](CCC(=O)O)C(=O)N[C@@H](CCC(N)=O)C(=O)N[C@@H]([C@@H](C)CC)C(=O)NCC(=O)N[C@@H](CCCCN)C(=O)N3)[C@@H](C)O)[C@@H](C)CC`, the Ki was 0.106 µM (MC4R; ligand displacement in cells).
`C[C@H](NC(=O)[C@H](CCC(=O)O)NC(=O)[C@H](CO)NC(=O)[C@H](C)NC(=O)[C@H](CO)NC(=O)CSCCNC(=O)CCNC(=O)[C@H](O)C(C)(C)COP(=O)(O)OP(=O)(O)OC[C@H]1O[C@@H](n2cnc3c(N)ncnc32)[C@H](O)[C@@H]1OP(=O)(O)O)C(N)=O` gave a Ki of 8.9 ± 0.1 µM (ard1, with Naa15 (Schizosaccharomyces pombe, UniProt Q9UTI3); noncompetitive with peptide substrate).
With `COC(=O)C[C@H](NC(=O)C(NC(=O)OCc1ccccc1)C(C)C)C(=O)CF` (stereo partly drawn) the Ki was over 200 µM (PRSS1; inhibitor).
For `CC[C@H](C)[C@H](NC(=O)CN)C(=O)N[C@H](C(=O)N[C@@H](CC(N)=O)C(=O)N[C@H](C(=O)N[C@@H](CC(C)C)C(=O)N[C@@H](CCC(N)=O)C(=O)N[C@@H](CCC(N)=O)C(=O)N[C@@H](Cc1ccc(O)cc1)C(=O)N[C@@H](Cc1ccc(O)cc1)C(=O)N[C@H]1CSSC[C@@H]2NC(=O)[C@H](CCC(N)=O)NC(=O)[C@H](CCC(N)=O)NC(=O)CNC(=O)[C@H](CCC(N)=O)NC(=O)[C@H]([C@@H](C)O)NC(=O)[C@H](CO)NC(=O)[C@@H]3CSSC[C@H](NC(=O)[C@H](CCCNC(=N)N)NC(=O)CNC(=O)CNC(=O)[C@H](CCCNC(=N)N)NC(=O)[C@H](C(C)C)NC(=O)[C@H](CCC(N)=O)NC1=O)C(=O)N[C@@H](C)C(=O)N[C@@H](C(C)C)C(=O)N[C@@H](CC(C)C)C(=O)N[C@@H](CO)C(=O)N[C@@H](CSSC[C@@H](C(=O)N[C@@H](CCCNC(=N)N)C(=O)N[C@@H](CCCNC(=N)N)C(=O)N[C@@H](CCCCN)C(=O)N[C@@H](CCCCN)C(N)=O)NC2=O)C(=O)N[C@@H](CC(C)C)C(=O)N1CCC[C@H]1C(=O)N[C@@H](CCCCN)C(=O)N[C@@H](CCC(=O)O)C(=O)N[C@@H](CCC(=O)O)C(=O)N[C@@H](CCC(N)=O)C(=O)N[C@@H]([C@@H](C)CC)C(=O)NCC(=O)N[C@@H](CCC(N)=O)C(=O)N3)[C@@H](C)O)[C@@H](C)CC`, the Ki was 0.923 µM (MC4R; ligand displacement in cells).
With `Cc1cc2c(cc1Cl)-c1c(c(C(=O)NC3C4(C)CCC(C4)C3(C)C)nn1-c1ccc(Cl)cc1Cl)C2` (stereo not drawn) the Ki was 0.09 µM (Cnr2; ligand displacement, radioligand).
`CC(=O)N[C@@H](CCCNC(=N)N)C(=O)N[C@H](Cc1ccc(O)cc1)C(=O)N[C@@H](CCCNC(=N)NC(=O)NCCCCN)C(=O)N[C@@H](CC(C)C)C(=O)N[C@@H](CCCNC(=N)N)C(=O)N[C@@H](Cc1ccc(O)cc1)C(N)=O` gave a Ki of over 5 µM (NPY2R; ligand displacement, radioligand).
`CN1CCN(C(=O)N[C@@H](Cc2ccccc2)C(=O)N[C@H](/C=C/S(=O)(=O)c2ccccc2)CCc2ccccc2)CC1` has a Ki of over 100 µM (CTSC (Bos taurus, UniProt Q3ZCJ8); enzyme activity, inhibitor, fluorescence; pH 5.5).
For `NCP(=O)(O)O`, the Ki was 240 µM (Urease; enzyme activity, inhibitor, absorbance; pH 7).
`O[C@@H]1[C@@H](O)[C@H](O[C@@H]2OC[C@@H](O)[C@H](O)[C@H]2O)C[C@H]2N[C@@H]12` gave a Ki of 71.7 µM (Exo-1,4-beta-xylosidase xlnD (xlnD, Emericella nidulans, UniProt Q5BAS1); covalent inhibitor; Aspergillus nidulans; pH 4.5, ambient, with: 4MU-β-D-xyloside).
`CN(CC(N)=O)C(=O)c1cc(Cl)sc1Cl` gave a Ki of 7.14 µM (Urease; enzyme activity, inhibitor).
`CSCC[C@H](NC=O)C(=O)N[C@@H](CCC(=O)O)C(=O)N[C@@H](Cc1ccccc1)C(=O)N[C@H](C(=O)N[C@@H](C)C(=O)N[C@@H](CCCCN)C(=O)N[C@@H](CC(C)C)C(=O)N[C@@H](Cc1ccccc1)C(=O)N[C@@H](CCCCN)C(=O)N[C@@H](Cc1ccccc1)C(=O)N[C@@H](Cc1ccccc1)C(=O)N[C@@H](CCCCN)C(=O)N[C@@H](CC(=O)O)C(=O)N[C@@H](CC(C)C)C(=O)N[C@@H](CC(C)C)C(=O)NCC(=O)N[C@@H](CCCCN)C(=O)N[C@@H](Cc1ccccc1)C(=O)N[C@@H](CC(C)C)C(=O)NCC(=O)N[C@@H](CC(N)=O)C(=O)N[C@@H](CC(N)=O)C(=O)O)C(C)C` gave a Ki of 0.0133 µM (FPR2 (Homo sapiens, UniProt P25090); ligand displacement, radioligand; cell membranes).
With `CC[C@H](C)[C@H](NC(=O)CN)C(=O)N[C@H](C(=O)N[C@@H](CC(N)=O)C(=O)N[C@H](C(=O)N[C@@H](CC(C)C)C(=O)N[C@@H](CCC(N)=O)C(=O)N[C@@H](CCCCN)C(=O)N[C@@H](Cc1ccc(O)cc1)C(=O)N[C@@H](Cc1ccc(O)cc1)C(=O)N[C@H]1CSSC[C@@H]2NC(=O)[C@H](CCCCN)NC(=O)[C@H](CCCNC(=N)N)NC(=O)CNC(=O)[C@H](CCCNC(=N)N)NC(=O)[C@H]([C@@H](C)O)NC(=O)[C@H](CO)NC(=O)[C@@H]3CSSC[C@H](NC(=O)[C@H](CCCNC(=N)N)NC(=O)CNC(=O)CNC(=O)[C@H](CCCNC(=N)N)NC(=O)[C@H](C(C)C)NC(=O)[C@H](CCCNC(=N)N)NC1=O)C(=O)N[C@@H](C)C(=O)N[C@@H](C(C)C)C(=O)N[C@@H](CC(C)C)C(=O)N[C@@H](CO)C(=O)N[C@@H](CSSC[C@@H](C(=O)N[C@@H](CCCNC(=N)N)C(=O)N[C@@H](C)C(=O)N[C@@H](CCCCN)C(=O)N[C@@H](C)C(N)=O)NC2=O)C(=O)N[C@@H](CC(C)C)C(=O)N1CCC[C@H]1C(=O)N[C@@H](CCCCN)C(=O)N[C@@H](CCC(=O)O)C(=O)N[C@@H](CCC(=O)O)C(=O)N[C@@H](CCC(N)=O)C(=O)N[C@@H]([C@@H](C)CC)C(=O)NCC(=O)N[C@@H](CCCCN)C(=O)N3)[C@@H](C)O)[C@@H](C)CC` the Ki was 0.083 µM (MC4R; ligand displacement in cells).
The Ki of `COc1c(OCCOCCOCCOCCOCCOc2cccc(C(=O)C3CCN(CCc4ccc(F)cc4)CC3)c2OC)cccc1C(=O)C1CCN(CCc2ccc(F)cc2)CC1` is reported as 0.0034 µM (HTR2A (Homo sapiens, UniProt P28223); ligand displacement, radioligand).
`CC[C@H](C)[C@H](NC(=O)[C@@H]1CSSC[C@H](NC(=O)[C@H](Cc2ccc(O)cc2)NC(=O)CNC(C)=O)C(=O)N[C@@H](CO)C(=O)N[C@@H](CCCNC(=N)N)C(=O)N[C@@H](CO)C(=O)N[C@@H](Cc2ccc(O)cc2)C(=O)N2CCC[C@H]2C(=O)N2CCC[C@H]2C(=O)N[C@@H](C(C)C)C(=O)N1)C(=O)N1CCC[C@H]1C(=O)N[C@@H](CC(=O)O)C(=O)O` gave a Ki of 0.07 µM (PRSS1; enzyme activity, inhibitor).

A few entries again:
`CSCC[C@H](NC=O)C(=O)N[C@@H](CCC(=O)O)C(=O)N[C@@H](Cc1ccccc1)C(=O)N[C@H](C(=O)N[C@@H](C)C(=O)N[C@@H](CCCCN)C(=O)N[C@@H](CC(C)C)C(=O)N[C@@H](Cc1ccccc1)C(=O)N[C@@H](CCCCN)C(=O)N[C@@H](Cc1ccccc1)C(=O)N[C@@H](Cc1ccccc1)C(=O)N[C@@H](CCCCN)C(=O)N[C@@H](CC(=O)O)C(=O)N[C@@H](CC(C)C)C(=O)N[C@@H](CC(C)C)C(=O)NCC(=O)N[C@@H](CCCCN)C(=O)N[C@@H](Cc1ccccc1)C(=O)N[C@@H](CC(C)C)C(=O)NCC(=O)N[C@@H](CC(N)=O)C(=O)N[C@@H](CC(N)=O)C(=O)O)C(C)C` gave a Ki of 0.0133 µM (FPR2 (Homo sapiens, UniProt P25090); ligand displacement, radioligand; cell membranes).
`O[C@@H]1[C@@H](O)[C@H](O[C@@H]2OC[C@@H](O)[C@H](O)[C@H]2O)C[C@H]2N[C@@H]12` gave a Ki of 71.7 µM (Exo-1,4-beta-xylosidase xlnD (xlnD, Emericella nidulans, UniProt Q5BAS1); covalent inhibitor; Aspergillus nidulans; pH 4.5, ambient, with: 4MU-β-D-xyloside).
With `CCCCCc1cc(O)c2c(c1)OC(C)(C)C1CCC(C(=O)OC3OC(C(=O)O)C(O)C(O)C3O)=CC21` (stereo not drawn) the Ki was 2 ± 1.2 µM (Cytochrome P450 2B6 (CYP2B6, Homo sapiens, UniProt P20813); inhibitor; HEK293 overexpressing CYP2B6, recombinant microsomes; pH 7.4, total concentration, with: bupropion 12.5 to 100 µM).
